Measured values gathered from unrelated publications.
Protocols differ between the studies behind these lines. Numbers after ± are the reported error.

`CCCCCCCOP(=O)(O)Oc1c2c(c(OP(=O)(O)OCCCCCCC)c3c1C1CC3c3cc4c(cc31)C1CC4c3ccccc31)C1CC2c2cc3c(cc21)C1CC3c2ccccc21` gave an IC50 of 7100 nM (human respiratory syncytial virus; viral infection, GFP reporter, flow cytometry; A549; virus pretreated 30 min).
The IC50 of `CC[C@H](C)[C@H](NC(=O)[C@H](Cc1ccccc1)NC(=O)[C@H](CC(=O)O)NC(=O)[C@H](CCCCN)NC(=O)[C@H](C)NC(=O)[C@H](CCCCN)NC(=O)[C@H](CC(N)=O)NC(=O)[C@H](CC(C)C)NC(=O)[C@H](Cc1c[nH]c2ccccc12)NC(=O)[C@H](CCC(=O)O)NC(=O)[C@H](CCCCN)NC(=O)[C@@H](NC(=O)CN)[C@@H](C)O)C(=O)N[C@@H](CCCCN)C(=O)N[C@@H](CCC(=O)O)C(=O)N[C@@H](CCCCN)C(=O)NCC(=O)N[C@@H](CC(C)C)C(=O)NCC(=O)N[C@@H](CCSC)C(=O)N[C@@H](CC(C)C)C(=O)N[C@@H](CO)C(=O)N[C@@H](C)C(=O)N[C@@H](C)C(=O)N[C@@H](C)C(=O)N[C@@H](CC(N)=O)C(=O)N[C@@H](C)C(=O)N[C@@H](C)C(=O)N[C@@H](CC(C)C)C(=O)N[C@@H](CC(N)=O)C(=O)O` is reported as 31200 ± 3900 nM (Haemonchus contortus; larval development; Kirby isolate; 6 days, 26 °C).
For `CC[C@H](C)[C@H](NC(=O)[C@H](CC(C)C)NC(=O)CNC(=O)[C@H](Cc1c[nH]cn1)NC(=O)[C@@H](NC(=O)[C@H](Cc1ccccc1)NC(=O)[C@H](CC(N)=O)NC(=O)[C@H](Cc1c[nH]c2ccccc12)NC(=O)[C@@H](NC(=O)[C@H](Cc1c[nH]cn1)NC(=O)[C@H](Cc1c[nH]cn1)NC(=O)[C@H](Cc1c[nH]c2ccccc12)NC(=O)[C@@H](N)CC(C)C)[C@@H](C)CC)C(C)C)C(N)=O`, the IC50 was 0.86 µg/mL (Herpes simplex virus 1; viral attachment, plaque reduction; Vero, F; 1 h, 4 °C).
For `CNCCN(C)c1ccc(Nc2cc(NC3CC3)n3ncc(C#N)c3n2)cc1NC(C)=O`, the IC50 was 2.51 nM (murine hepatitis virus; viral replication, nanoluciferase reporter; DBT; 10 h).
With `O=P(O)(OCc1cccc2ccccc12)Oc1c2c(c(OP(=O)(O)OCc3cccc4ccccc34)c3c1C1CC3c3cc4c(cc31)C1CC4c3ccccc31)C1CC2c2cc3c(cc21)C1CC3c2ccccc21` the IC50 was 6000 nM (human respiratory syncytial virus; viral infection, GFP reporter, flow cytometry; A549; virus pretreated 30 min).
With `O=C(C1CCN(c2nnnn2-c2ccccc2)CC1)N1CCCc2ccccc21` the IC50 was 707 nM (Plasmodium falciparum; erythrocytes, Dd2, cytb variant).
The IC50 of `CSC[C@H]1CN(Cc2c[nH]c3c(N)ncnc23)C[C@@H]1O` is reported as 4200 ± 1300 nM (Campylobacter jejuni; cell growth; 16.4 h).
For `CC(=O)Nc1cc(Nc2cc(NC3CC3)n3ncc(C#N)c3n2)ccc1C`, the IC50 was 7.94 nM (murine hepatitis virus; viral replication, nanoluciferase reporter; DBT; 10 h).
With `CC1N=C(CCCCCCCCCCC2=CC(CCCCCCCCCCC3=NC(C)C(O)CC3)C3CCCN3C2)CCC1O` (stereo not drawn) the IC50 was 9.72 µg/mL (Mycobacterium intracellulare; microbial growth, resazurin; ATCC23068).
The IC50 of `CCN(CC)CCN(C)c1ccc(Nc2cc(NC3CC3)n3ncc(C#N)c3n2)cc1NC(C)=O` is reported as 25.1 nM (murine hepatitis virus; viral replication, nanoluciferase reporter; DBT; 10 h).
`COc1cc(/C=C/c2ccc(OC)c(O)c2)cc(OC)c1` has an IC50 of 122000 nM (Streptococcus mutans; biofilm formation, crystal violet).
`CC(=O)N[C@H](C(=O)N[C@@H](CCCCNC(=O)CCC(=O)OC[C@@H]1O[C@H](n2ccc(N)nc2=O)CS1)C(=O)N[C@H](C(=O)N[C@@H](CCCCNC(=O)CCC(=O)OC[C@@H]1O[C@H](n2ccc(N)nc2=O)CS1)C(=O)N[C@H](C(=O)N[C@@H](CCCCNC(=O)CCC(=O)OC[C@@H]1O[C@H](n2ccc(N)nc2=O)CS1)C(=O)N[C@@H](CCC(=O)O)C(=O)N[C@@H](CCC(=O)O)C(=O)N[C@@H](CCC(=O)O)C(N)=O)C(C)C)C(C)C)C(C)C` gave an IC50 of 80 nM (hepatitis B virus; HBV DNA release, qPCR; HepAD38, culture supernatant).
For `CC(=O)CCC1C(=O)NC(C(C)C)C(=O)NC(Cc2cccc(O)c2)C(=O)N2CCCC(N2)C(=O)OC(C(C)=CC=CC(=O)N2CCCCO2)CC=CC=CC(O)C(C)C1O` (stereo not drawn), the IC50 was 600 nM (hepatitis B virus; viral replication, item: HBsAg; HBV stable cell line).
`CC(=O)Nc1cc(Nc2cc(NC3CC3)n3ncc(C#N)c3n2)ccc1N(C)CCN(C)C` gave an IC50 of 2 nM (murine hepatitis virus; viral replication, nanoluciferase reporter; DBT; 10 h).
`CC[C@H](C)[C@H](NC(=O)CNC(=O)[C@H](CC(C)C)NC(=O)CNC(=O)[C@H](CCCCN)NC(=O)[C@H](CCC(=O)O)NC(=O)[C@H](CCCCN)NC(=O)[C@@H](NC(=O)[C@H](Cc1ccccc1)NC(=O)[C@H](CC(=O)O)NC(=O)[C@H](CCCCN)NC(=O)[C@H](C)NC(=O)[C@H](CCCCN)NC(=O)[C@H](CC(N)=O)NC(=O)[C@H](CC(C)C)NC(=O)[C@H](Cc1c[nH]c2ccccc12)NC(=O)[C@H](CC(=O)O)NC(=O)[C@H](CCCCN)NC(=O)[C@@H](NC(=O)CNC(=O)[C@H](C)N)[C@@H](C)O)[C@@H](C)CC)C(=O)N[C@@H](CC(C)C)C(=O)N[C@@H](CO)C(=O)N[C@@H](C)C(=O)N[C@@H](C)C(=O)N[C@@H](C)C(=O)N[C@@H](CC(N)=O)C(=O)N[C@@H](C)C(=O)N[C@@H](C)C(=O)N[C@H](C(=O)N[C@@H](CC(N)=O)C(=O)O)[C@@H](C)CC` gave an IC50 of 31600 ± 7600 nM (Haemonchus contortus; larval development; Kirby isolate; 6 days, 26 °C).
The IC50 of `CC[C@H](C)[C@H](NC(=O)[C@H](CC(C)C)NC(=O)CNC(=O)[C@H](Cc1c[nH]cn1)NC(=O)[C@@H](NC(=O)[C@H](Cc1ccccc1)NC(=O)[C@H](CC(N)=O)NC(=O)[C@H](Cc1c[nH]c2ccccc12)NC(=O)[C@@H](NC(=O)[C@H](Cc1c[nH]cn1)NC(=O)CNC(=O)[C@H](Cc1c[nH]c2ccccc12)NC(=O)[C@@H](N)CC(C)C)[C@@H](C)CC)C(C)C)C(N)=O` is reported as 1.5 µg/mL (Herpes simplex virus 1; virus inactivation, plaque reduction; Vero, F; 37 °C).
For `CC(=O)Nc1ccc2ccn(-c3cc(NC4CCC4)n4ncc(C#N)c4n3)c2c1`, the IC50 was less than 1000 nM (murine hepatitis virus; viral replication, nanoluciferase reporter; DBT; 10 h).
With `CC(C)C[C@H](NC(=O)[C@H](CC(=O)O)NC(=O)[C@H](CC(C)C)NC(=O)[C@H](CC(=O)O)NC(=O)CNC(=O)[C@@H]1CCCN1C(=O)[C@H](CCCCN)NC(=O)[C@H](CC(C)C)NC(=O)[C@H](Cc1c[nH]c2ccccc12)NC(=O)[C@@H]1CCCN1)C(=O)O` the IC50 was greater than 500000 nM (dengue virus type 2; plaque reduction; LLC-MK2, New Guinea C).
For `CC(C)C[C@H](NC(=O)CNC(=O)c1cc(Cl)ccc1Cl)B(O)O`, the IC50 was 350 ± 35 nM (Babesia divergens; parasite growth; bovine erythrocyte culture; 48 h, starting parasitemia 2%).
`CC(=O)CCC1C(=O)NC(C(C)C)C(=O)NC(Cc2cc(O)cc(F)c2)C(=O)N2CCCC(N2)C(=O)OC(C(C)=CC=CC(=O)N2CCCCO2)CC=CC=CC(O)C(C)C1O` (stereo not drawn) gave an IC50 of 950 nM (hepatitis B virus; viral replication, item: HBV DNA; HBV stable cell line).
The IC50 of `CCCCCCOP(=O)(O)Oc1c2c(c(OP(=O)(O)OCCCCCC)c3c1C1CC3c3cc4c(cc31)C1CC4c3ccccc31)C1CC2c2cc3c(cc21)C1CC3c2ccccc21` is reported as 7400 nM (human respiratory syncytial virus; viral infection, GFP reporter, flow cytometry; A549; virus pretreated 30 min).
`CC[C@H](C)[C@H](NC(=O)[C@H](CC(C)C)NC(=O)[C@H](Cc1c[nH]cn1)NC(=O)[C@H](Cc1c[nH]cn1)NC(=O)[C@@H](NC(=O)[C@H](Cc1ccccc1)NC(=O)[C@H](CC(N)=O)NC(=O)[C@H](Cc1c[nH]c2ccccc12)NC(=O)[C@@H](NC(=O)[C@H](Cc1c[nH]cn1)NC(=O)[C@H](Cc1c[nH]cn1)NC(=O)[C@H](Cc1c[nH]c2ccccc12)NC(=O)[C@@H](N)CC(C)C)[C@@H](C)CC)C(C)C)C(N)=O` gave an IC50 of 0.63 µg/mL (Herpes simplex virus 1; viral attachment, plaque reduction; Vero, F; 1 h, 4 °C).
With `CC[C@H](C)[C@H](NC(=O)[C@H]([C@@H](C)CC)N(C)C(C)=O)C(=O)N[C@H](C(=O)N[C@@H](CC(C)C)C(=O)[C@@]1(C)CO1)[C@@H](C)O` the IC50 was 63 ± 10 nM (Babesia divergens; parasite growth; bovine erythrocyte culture; 48 h, starting parasitemia 2%).
With `CC[C@H](C)[C@H](NC(=O)[C@H](Cc1ccccc1)NC(=O)[C@H](CC(=O)O)NC(=O)[C@H](CCCCN)NC(=O)[C@H](C)NC(=O)[C@H](CCCCN)NC(=O)[C@H](CC(N)=O)NC(=O)[C@H](CC(C)C)NC(=O)[C@H](Cc1c[nH]c2ccccc12)NC(=O)[C@H](CCC(=O)O)NC(=O)[C@H](CCCCN)NC(=O)[C@@H](NC(=O)CNC(=O)[C@H](C)N)[C@@H](C)O)C(=O)N[C@@H](CCCCN)C(=O)N[C@@H](CCC(=O)O)C(=O)N[C@@H](CCCCN)C(=O)NCC(=O)N[C@@H](CC(C)C)C(=O)N[C@@H](CCC(=O)O)C(=O)N[C@@H](CCSC)C(=O)N[C@@H](CC(C)C)C(=O)N[C@@H](CO)C(=O)N[C@@H](C)C(=O)N[C@@H](C)C(=O)N[C@@H](C)C(=O)N[C@@H](CC(N)=O)C(=O)N[C@@H](C)C(=O)N[C@@H](C)C(=O)N[C@@H](CC(C)C)C(=O)N[C@@H](CC(N)=O)C(=O)O` the IC50 was greater than 100000 nM (Haemonchus contortus; larval development; Kirby isolate; 6 days, 26 °C).

For quick reference, copied from above:
The IC50 of `CSC[C@H]1CN(Cc2c[nH]c3c(N)ncnc23)C[C@@H]1O` is reported as 4200 ± 1300 nM (Campylobacter jejuni; cell growth; 16.4 h).
The IC50 of `CC[C@H](C)[C@H](NC(=O)[C@H](Cc1ccccc1)NC(=O)[C@H](CC(=O)O)NC(=O)[C@H](CCCCN)NC(=O)[C@H](C)NC(=O)[C@H](CCCCN)NC(=O)[C@H](CC(N)=O)NC(=O)[C@H](CC(C)C)NC(=O)[C@H](Cc1c[nH]c2ccccc12)NC(=O)[C@H](CCC(=O)O)NC(=O)[C@H](CCCCN)NC(=O)[C@@H](NC(=O)CN)[C@@H](C)O)C(=O)N[C@@H](CCCCN)C(=O)N[C@@H](CCC(=O)O)C(=O)N[C@@H](CCCCN)C(=O)NCC(=O)N[C@@H](CC(C)C)C(=O)NCC(=O)N[C@@H](CCSC)C(=O)N[C@@H](CC(C)C)C(=O)N[C@@H](CO)C(=O)N[C@@H](C)C(=O)N[C@@H](C)C(=O)N[C@@H](C)C(=O)N[C@@H](CC(N)=O)C(=O)N[C@@H](C)C(=O)N[C@@H](C)C(=O)N[C@@H](CC(C)C)C(=O)N[C@@H](CC(N)=O)C(=O)O` is reported as 31200 ± 3900 nM (Haemonchus contortus; larval development; Kirby isolate; 6 days, 26 °C).
